# Measurements pooled from the literature.
# Numbered parts are unrelated; each lists some results of a single study.
# UniProt Q14289, sequence (whole entry, looked up): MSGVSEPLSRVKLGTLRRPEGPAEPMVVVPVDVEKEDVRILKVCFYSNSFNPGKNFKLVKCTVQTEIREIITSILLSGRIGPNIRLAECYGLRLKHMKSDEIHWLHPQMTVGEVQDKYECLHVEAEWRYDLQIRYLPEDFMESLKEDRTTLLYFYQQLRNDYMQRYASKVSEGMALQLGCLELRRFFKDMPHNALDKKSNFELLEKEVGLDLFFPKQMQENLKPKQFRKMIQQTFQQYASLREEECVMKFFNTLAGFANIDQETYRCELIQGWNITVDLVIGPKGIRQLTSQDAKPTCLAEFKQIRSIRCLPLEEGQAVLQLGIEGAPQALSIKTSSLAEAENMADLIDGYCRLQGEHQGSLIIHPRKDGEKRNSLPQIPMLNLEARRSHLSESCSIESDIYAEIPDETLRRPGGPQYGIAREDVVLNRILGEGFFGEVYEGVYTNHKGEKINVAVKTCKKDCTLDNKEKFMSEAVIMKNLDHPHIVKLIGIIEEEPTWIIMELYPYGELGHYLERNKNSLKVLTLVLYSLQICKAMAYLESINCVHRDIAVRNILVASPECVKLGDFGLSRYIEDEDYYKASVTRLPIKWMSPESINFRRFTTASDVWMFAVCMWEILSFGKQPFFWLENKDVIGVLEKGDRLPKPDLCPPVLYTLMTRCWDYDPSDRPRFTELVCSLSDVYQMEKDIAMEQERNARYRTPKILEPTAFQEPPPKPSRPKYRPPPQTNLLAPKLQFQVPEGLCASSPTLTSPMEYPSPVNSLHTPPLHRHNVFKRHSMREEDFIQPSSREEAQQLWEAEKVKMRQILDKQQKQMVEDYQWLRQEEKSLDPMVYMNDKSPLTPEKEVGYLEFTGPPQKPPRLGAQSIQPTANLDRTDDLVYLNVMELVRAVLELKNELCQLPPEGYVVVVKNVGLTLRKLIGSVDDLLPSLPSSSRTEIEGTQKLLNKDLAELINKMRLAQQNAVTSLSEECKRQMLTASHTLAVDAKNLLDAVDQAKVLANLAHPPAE
# UniProt P06241, sequence (whole entry, looked up): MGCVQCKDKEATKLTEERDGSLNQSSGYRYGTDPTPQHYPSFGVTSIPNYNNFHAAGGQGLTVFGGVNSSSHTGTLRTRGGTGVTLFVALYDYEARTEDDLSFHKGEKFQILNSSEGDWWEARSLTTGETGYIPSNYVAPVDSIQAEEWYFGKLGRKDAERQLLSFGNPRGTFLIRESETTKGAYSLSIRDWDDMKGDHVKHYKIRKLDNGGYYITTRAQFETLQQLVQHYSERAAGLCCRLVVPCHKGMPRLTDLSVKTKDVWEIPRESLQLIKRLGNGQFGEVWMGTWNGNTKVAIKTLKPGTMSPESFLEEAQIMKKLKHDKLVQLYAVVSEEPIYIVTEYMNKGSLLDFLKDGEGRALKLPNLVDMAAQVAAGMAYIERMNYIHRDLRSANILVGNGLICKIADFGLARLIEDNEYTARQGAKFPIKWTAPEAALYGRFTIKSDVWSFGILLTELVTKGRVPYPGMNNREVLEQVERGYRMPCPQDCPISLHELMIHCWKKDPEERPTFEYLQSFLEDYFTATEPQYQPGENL
# UniProt Q13873, sequence (whole entry, looked up): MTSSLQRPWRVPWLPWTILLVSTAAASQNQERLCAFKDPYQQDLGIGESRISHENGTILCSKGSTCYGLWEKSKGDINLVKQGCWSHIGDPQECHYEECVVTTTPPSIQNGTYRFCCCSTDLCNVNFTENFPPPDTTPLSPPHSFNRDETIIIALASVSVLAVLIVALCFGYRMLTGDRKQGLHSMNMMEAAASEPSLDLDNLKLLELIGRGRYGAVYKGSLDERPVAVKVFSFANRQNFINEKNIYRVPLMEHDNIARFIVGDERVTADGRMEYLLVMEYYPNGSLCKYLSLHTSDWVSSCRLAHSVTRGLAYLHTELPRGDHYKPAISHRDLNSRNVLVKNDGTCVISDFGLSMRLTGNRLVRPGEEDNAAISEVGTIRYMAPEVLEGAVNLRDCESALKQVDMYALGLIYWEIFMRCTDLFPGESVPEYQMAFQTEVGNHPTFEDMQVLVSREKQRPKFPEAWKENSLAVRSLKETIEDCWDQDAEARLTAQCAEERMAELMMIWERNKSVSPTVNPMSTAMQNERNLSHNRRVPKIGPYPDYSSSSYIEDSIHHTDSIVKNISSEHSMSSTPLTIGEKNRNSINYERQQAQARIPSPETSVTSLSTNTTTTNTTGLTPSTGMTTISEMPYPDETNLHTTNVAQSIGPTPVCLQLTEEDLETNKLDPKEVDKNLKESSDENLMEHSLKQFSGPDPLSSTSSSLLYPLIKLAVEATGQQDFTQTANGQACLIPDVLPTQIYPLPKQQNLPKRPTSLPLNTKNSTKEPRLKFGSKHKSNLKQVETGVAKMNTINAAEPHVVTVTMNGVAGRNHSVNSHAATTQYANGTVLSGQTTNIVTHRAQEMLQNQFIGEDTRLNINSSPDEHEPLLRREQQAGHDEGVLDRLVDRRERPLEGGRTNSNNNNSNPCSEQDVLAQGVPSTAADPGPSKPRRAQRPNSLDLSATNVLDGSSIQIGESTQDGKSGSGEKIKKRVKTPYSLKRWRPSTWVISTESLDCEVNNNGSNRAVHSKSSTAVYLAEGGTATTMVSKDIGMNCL
# UniProt O15075, sequence (whole entry, looked up): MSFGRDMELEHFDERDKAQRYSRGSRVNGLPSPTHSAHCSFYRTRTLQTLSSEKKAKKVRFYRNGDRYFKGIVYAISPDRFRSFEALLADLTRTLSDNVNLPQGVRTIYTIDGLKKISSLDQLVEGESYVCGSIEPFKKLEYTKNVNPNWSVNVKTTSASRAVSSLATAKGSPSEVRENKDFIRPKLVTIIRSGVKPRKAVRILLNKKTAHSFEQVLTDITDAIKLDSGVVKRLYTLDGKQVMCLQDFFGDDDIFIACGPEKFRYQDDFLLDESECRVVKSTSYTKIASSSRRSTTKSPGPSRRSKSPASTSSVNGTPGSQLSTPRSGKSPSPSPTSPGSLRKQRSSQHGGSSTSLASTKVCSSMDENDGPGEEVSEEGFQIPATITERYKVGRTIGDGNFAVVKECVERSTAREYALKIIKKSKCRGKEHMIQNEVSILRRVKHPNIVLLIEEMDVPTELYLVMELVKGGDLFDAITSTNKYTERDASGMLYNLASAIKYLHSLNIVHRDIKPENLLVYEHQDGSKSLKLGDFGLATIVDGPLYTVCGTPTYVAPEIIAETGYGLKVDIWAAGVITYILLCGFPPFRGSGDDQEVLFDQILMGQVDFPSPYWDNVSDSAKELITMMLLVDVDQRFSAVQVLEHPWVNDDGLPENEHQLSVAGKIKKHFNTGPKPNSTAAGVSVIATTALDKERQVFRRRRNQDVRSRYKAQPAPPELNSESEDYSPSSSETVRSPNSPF

# Block 1
# Target: Sal-like protein 4, full length isoform B (SALL4, Homo sapiens, UniProt Q9UJQ4-2, residues 1-616)
# Method: universal PBM
# Form: double-stranded DNA, one strand shown
# Sample: in vitro
# Concentration: not given
# Notes: 8-mer, flanks averaged, mean of replicates
# Direction: higher = stronger binding
# Residues (chain): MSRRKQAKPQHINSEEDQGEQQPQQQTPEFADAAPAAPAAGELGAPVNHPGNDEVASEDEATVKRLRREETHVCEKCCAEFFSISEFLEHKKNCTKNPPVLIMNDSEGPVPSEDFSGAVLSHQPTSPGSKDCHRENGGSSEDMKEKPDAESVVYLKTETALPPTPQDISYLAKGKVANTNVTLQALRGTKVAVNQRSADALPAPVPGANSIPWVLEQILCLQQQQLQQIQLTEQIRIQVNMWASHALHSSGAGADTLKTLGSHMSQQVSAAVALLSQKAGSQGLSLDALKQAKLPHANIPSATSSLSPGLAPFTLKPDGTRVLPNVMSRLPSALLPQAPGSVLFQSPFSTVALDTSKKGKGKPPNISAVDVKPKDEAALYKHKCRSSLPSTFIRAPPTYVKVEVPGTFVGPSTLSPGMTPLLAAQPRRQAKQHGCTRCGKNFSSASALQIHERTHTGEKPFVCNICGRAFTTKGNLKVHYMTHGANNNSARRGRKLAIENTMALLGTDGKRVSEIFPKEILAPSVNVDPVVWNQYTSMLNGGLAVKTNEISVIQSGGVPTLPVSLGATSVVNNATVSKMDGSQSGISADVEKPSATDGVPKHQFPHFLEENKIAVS
Sequence,E-score
CTTTCACC,0.00599
AGTGCTGA,-0.0949
CCTAATGA,0.0588
ACTCCTCG,0.0436
AGGTTGTC,-0.0793
GGTAGGAA,-0.0391
ATTAGCGG,-0.112
AATGCAAC,0.14

# Block 2
# SMILES: Cc1cc(C)c(-n2ccn3nc(-c4cccnc4)cc23)cc1NC(=O)c1cc(C#N)cc(S(F)(F)(F)(F)F)c1
# Observed: cell-free assay
# Method: competition with immobilised ligand
# Concentration: 0.1 µM
target,remaining binding [%]
"DCLK1 (Homo sapiens, UniProt O15075)",73.6
"PTK2B (Homo sapiens, UniProt Q14289)",81.4
"FYN (Homo sapiens, UniProt P06241)",97.5
"BMPR2 (Homo sapiens, UniProt Q13873)",89.4

# Block 3
# Target: Prothrombin, mature alpha-thrombin (F2, Homo sapiens, UniProt P00734)
# Method: aptamer microarray, sandwich
# Form: DNA with 2'F-ANA
# Sample: in vitro
# Concentration: 200 nM
# Notes: whole 15-mer aptamer, many near background
# With: Cy3 exosite-II aptamer, 400 nM
# Direction: higher = stronger binding
# Sequence: GGTTGGTGTGGTTGG
Modification,mean fluorescence intensity [a.u.]
2'F-ANA at 1 3 6 8 10 14,75.8
2'F-ANA at 3 5 7 8 9 11 12,367
2'F-ANA at 1 2 6 7 8 9 13,100
2'F-ANA at 4 6 9 12 15,397
2'F-ANA at 4 5 6 7 11 13 14,43.8
2'F-ANA at 2 4 7 9 11 13 14 15,81.3
2'F-ANA at 3 4 5 7 9 12 15,208
2'F-ANA at 1 2 3 7 9 11 13 14,59.9

# Block 4
# Target: Homeodomain-interacting protein kinase 3 (HIPK3, Homo sapiens, UniProt Q9H422)
# UniProt Q9H422, sequence (whole entry, looked up): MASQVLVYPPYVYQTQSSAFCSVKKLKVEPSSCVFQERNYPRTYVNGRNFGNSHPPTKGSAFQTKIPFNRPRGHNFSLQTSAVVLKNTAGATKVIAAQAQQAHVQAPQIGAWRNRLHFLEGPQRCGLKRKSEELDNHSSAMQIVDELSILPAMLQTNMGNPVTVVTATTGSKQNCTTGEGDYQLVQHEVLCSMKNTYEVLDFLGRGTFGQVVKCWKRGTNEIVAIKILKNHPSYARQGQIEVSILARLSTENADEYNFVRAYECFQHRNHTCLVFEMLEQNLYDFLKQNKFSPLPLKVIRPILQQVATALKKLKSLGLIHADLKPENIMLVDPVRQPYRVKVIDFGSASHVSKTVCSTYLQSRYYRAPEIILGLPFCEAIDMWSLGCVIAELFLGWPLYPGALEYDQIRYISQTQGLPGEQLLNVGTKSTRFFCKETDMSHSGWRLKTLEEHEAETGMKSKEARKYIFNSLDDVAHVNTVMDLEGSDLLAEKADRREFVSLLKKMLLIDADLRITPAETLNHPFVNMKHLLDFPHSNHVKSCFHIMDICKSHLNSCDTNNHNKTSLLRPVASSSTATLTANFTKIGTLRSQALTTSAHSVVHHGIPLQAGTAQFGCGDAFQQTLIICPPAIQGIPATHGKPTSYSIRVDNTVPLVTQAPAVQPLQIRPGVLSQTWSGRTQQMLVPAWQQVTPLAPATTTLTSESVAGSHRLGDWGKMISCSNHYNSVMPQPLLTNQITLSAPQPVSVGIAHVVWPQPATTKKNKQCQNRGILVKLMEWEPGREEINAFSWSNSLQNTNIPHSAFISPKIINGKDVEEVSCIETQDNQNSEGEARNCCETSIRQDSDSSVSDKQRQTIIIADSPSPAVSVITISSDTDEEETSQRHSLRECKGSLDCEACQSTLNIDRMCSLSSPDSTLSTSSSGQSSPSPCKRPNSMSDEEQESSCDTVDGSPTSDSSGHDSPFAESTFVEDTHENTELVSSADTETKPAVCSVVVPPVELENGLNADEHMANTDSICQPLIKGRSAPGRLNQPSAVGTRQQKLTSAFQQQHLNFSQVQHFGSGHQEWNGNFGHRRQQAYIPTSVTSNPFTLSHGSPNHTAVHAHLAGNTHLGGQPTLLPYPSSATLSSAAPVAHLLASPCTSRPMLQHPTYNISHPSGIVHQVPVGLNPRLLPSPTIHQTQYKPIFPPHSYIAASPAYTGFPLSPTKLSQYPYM
# Observed: enzyme activity
# Action: inhibitor
# Concentration: 0.5 µM
# Baseline: control
Compound,remaining activity [%]
OCC(O)CCON=C1C(c2c(O)[nH]c3ccccc23)=Nc2ccccc21 (stereo not shown),66.2
Cn1sc(=O)n(Cc2ccccc2)c1=O,94.9
COc1cc2ncnc(Nc3ccc(Oc4ccccc4)cc3)c2cc1OC,103
CN(C)c1ccc(C=C2C(=O)Nc3ccccc32)cc1,94.4
Nc1ncnc2n[nH]c(Nc3ccc(F)cc3)c12,100
O=C1NC(=O)C(c2cn(CCCn3ccnc3)c3ccccc23)=C1Nc1ccccc1,102
COc1ccc(CNC(=O)Nc2ncc([N+](=O)[O-])s2)cc1,91.9
N#CC(C#N)=C(N)/C(C#N)=C/c1ccc(O)cc1,102
Cc1ccc(Nc2nccc(N(C)c3ccc4c(C)n(C)nc4c3)n2)cc1S(N)(=O)=O,103
O=C(CCCc1ccc(-c2ccccc2F)cc1)Nc1ccc(O)cc1,99.4
O=c1c2ccccc2[nH]c(=S)n1CCN1CCC(=C(c2ccc(F)cc2)c2ccc(F)cc2)CC1,97.7
Cn1c2ccccc2c2c3c(c4c5ccccc5n(CCC#N)c4c21)CNC3=O,29.8
NCCNc1ncc(C(N)=O)c(Nc2cccc(C(F)(F)F)c2)n1,102
COc1ccc(OC)c2c(=S)c3ccccc3[nH]c12,101

# A few entries again (block 3):
Modification,mean fluorescence intensity [a.u.]
2'F-ANA at 3 4 5 7 9 12 15,208
2'F-ANA at 1 3 6 8 10 14,75.8
2'F-ANA at 2 4 7 9 11 13 14 15,81.3
